Results gathered from unrelated publications.
Numbered parts are unrelated; each lists some results of a single study.

Series 1
Target: Histone acetyltransferase KAT6A, both winged helices, GST fusion (KAT6A, Homo sapiens, UniProt Q92794, residues 1-181)
Method: protein binding microarray
Molecule type: double-stranded DNA, one strand shown
Sample: in vitro
Concentration: not given
Setting: 8-mer, flanks averaged, mean of 2 arrays, mostly near background
Relative to: not given
Direction: higher = stronger binding
Residues (chain): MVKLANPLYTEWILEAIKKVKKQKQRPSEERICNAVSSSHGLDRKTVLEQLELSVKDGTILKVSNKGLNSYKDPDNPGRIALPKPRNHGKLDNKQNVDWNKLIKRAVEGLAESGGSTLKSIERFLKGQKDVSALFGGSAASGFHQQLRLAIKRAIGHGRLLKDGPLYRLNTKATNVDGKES
`ACTTTAGA` gave an E-score of -0.0591.
With `GTTTTTGA` the E-score was -0.0571.
`TTTTAAAA` gave an E-score of 0.02.
For `ACGCCACT`, the E-score was -0.0144.
With `TATTAAAA` the E-score was 0.0525.

Series 2
Target: Sal-like protein 4, full length isoform A (SALL4, Homo sapiens, UniProt Q9UJQ4, residues 1-1053)
UniProt Q9UJQ4, sequence (whole entry, looked up): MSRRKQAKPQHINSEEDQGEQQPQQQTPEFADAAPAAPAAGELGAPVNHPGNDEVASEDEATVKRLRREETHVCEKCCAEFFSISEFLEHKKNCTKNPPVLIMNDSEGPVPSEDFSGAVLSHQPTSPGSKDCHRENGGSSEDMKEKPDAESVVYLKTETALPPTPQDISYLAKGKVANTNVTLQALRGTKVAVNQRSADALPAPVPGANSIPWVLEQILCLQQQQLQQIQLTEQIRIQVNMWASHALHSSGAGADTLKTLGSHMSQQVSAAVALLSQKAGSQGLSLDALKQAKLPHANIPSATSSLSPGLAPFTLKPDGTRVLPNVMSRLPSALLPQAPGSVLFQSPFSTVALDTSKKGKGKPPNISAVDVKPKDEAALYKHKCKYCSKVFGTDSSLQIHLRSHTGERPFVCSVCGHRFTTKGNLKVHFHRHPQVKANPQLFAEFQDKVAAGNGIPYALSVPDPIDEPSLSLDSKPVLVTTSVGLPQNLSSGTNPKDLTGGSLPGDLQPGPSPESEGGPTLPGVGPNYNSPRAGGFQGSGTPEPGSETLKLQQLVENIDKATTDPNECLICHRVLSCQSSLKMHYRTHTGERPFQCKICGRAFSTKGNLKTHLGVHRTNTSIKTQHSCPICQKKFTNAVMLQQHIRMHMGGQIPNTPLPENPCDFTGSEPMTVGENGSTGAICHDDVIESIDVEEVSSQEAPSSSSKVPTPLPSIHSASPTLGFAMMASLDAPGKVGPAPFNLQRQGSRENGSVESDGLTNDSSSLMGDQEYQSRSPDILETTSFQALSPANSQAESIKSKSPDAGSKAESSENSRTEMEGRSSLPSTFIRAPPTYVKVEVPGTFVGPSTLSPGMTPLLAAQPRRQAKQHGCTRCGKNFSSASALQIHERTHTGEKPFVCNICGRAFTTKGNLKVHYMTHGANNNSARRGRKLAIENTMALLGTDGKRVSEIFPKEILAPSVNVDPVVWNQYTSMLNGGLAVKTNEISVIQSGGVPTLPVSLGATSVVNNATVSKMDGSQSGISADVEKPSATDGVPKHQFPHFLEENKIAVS
Method: universal PBM
Molecule type: double-stranded DNA, one strand shown
Sample: in vitro
Concentration: 600 nM
Setting: 8-mer, flanks averaged, mean of replicates
Direction: higher = stronger binding
`CGCCGATC` has an E-score of -0.2.
With `AGTGGTGC` the E-score was -0.149.
With `ACTAGACA` the E-score was 0.173.
The E-score of `ATGAAAAA` is reported as 0.305.
With `AGGAACAT` the E-score was 0.156.
The E-score of `ACTCGCAC` is reported as -0.235.

Series 3
Target: Protein C-ets-1 (ETS1, Homo sapiens, UniProt P14921, residues 1-441, full length assumed)
Method: protein-binding microarray
Molecule type: double-stranded DNA, one strand shown
Sample: in vitro
Concentration: not given
Setting: k-mer, scored over probes, only values ≥0.25
Direction: higher = stronger binding
Target sequence (chain): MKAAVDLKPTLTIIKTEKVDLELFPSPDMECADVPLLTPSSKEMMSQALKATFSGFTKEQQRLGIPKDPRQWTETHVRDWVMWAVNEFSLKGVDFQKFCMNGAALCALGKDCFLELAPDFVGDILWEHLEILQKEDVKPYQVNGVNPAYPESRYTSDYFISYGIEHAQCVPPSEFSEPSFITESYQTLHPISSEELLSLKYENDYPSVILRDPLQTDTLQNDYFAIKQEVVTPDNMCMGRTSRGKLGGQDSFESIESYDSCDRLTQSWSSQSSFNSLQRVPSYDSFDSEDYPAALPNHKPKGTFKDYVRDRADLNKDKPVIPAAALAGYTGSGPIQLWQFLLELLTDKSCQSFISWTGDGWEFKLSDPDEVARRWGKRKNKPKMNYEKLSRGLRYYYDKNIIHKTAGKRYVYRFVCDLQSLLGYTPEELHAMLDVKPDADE
`ATCCGATC` gave an E-score of 0.285.
`AGCTTTCC` gave an E-score of 0.272.
With `GGATATCC` the E-score was 0.407.
With `CCGGGGAG` the E-score was 0.276.

Single results of other studies
The fold induction of `PhoQ, residues 284 288 289 292 302 303 MLMVEA` is reported as 17.6 (PhoP, residues 12 14 15 18 19 NFCKL (Escherichia coli, UniProt P23836); Sort-seq, item: YFP reporter; E. coli; PhoQ-PhoP variant library, with: 10 µM Mg2+; relative to: high Mg2+ state, higher = stronger signaling).

For quick reference, copied from above (series 3):
`ATCCGATC` gave an E-score of 0.285.
`AGCTTTCC` gave an E-score of 0.272.
